# Measured values pooled from the literature.
# Lines come from different studies, so protocols differ. ± marks the error that the study gave.
Compound,target or system,test,test system,setting,quantity,value
CN[C@@H]1[C@H](O)[C@H](NC)[C@H]2O[C@]3(O)[C@H](O[C@@H]2[C@H]1O)O[C@H](C)C[C@H]3NC(=O)Cc1ccc(Cl)cn1,Mycobacterium tuberculosis,"microbial growth, broth dilution",H37RV,,MIC,1.6 µg/mL
CCN(CC)C12C3CCC4C3C3C(CCC31)C42,Influenza A virus,viral replication,A/Virginia/ATCC3/2009 H1N1pdm,,EC50,11 ± 6 µM
Nc1nc(SCCN2CCCC2)nc2sc3c(c12)CCC(c1ccccc1)C3 (centres unmarked),Mycobacterium tuberculosis,,K204,"100 µM, compound toxic alone, with: kanamycin",kanamycin MIC,toxic
CCC1(CC)C2CC3CC(C2)CC1(N(C)C)C3,Influenza A virus,viral replication,,,EC50,> 100 µM
Cc1[nH]c(=O)c(CNC(=O)c2ccc(C(F)(F)F)nc2)c2c1CCCC2,Mycobacterium tuberculosis,,"MDR, isoniazid and rifampicin resistant",,MIC,0.9 µg/mL
CN[C@@H]1[C@H](O)[C@H](NC)[C@H]2O[C@]3(O)[C@H](O[C@@H]2[C@H]1O)O[C@H](C)C[C@H]3NC(=O)Cc1ccccn1,Mycobacterium tuberculosis,"microbial growth, broth dilution",H37RV,,MIC,1.6 µg/mL
c1nc(N2CCCCCC2)cnc1CNC12CC3CC(CC(C3)C1)C2,"Matrix protein 2 (Influenza A virus, UniProt P0DOF5)","channel activity, inhibitor",,100 µM,inhibition,12.3%
COc1ccc(CNC(C)(C)C23CC4CC(CC(C4)C2)C3)c(O)c1,influenza A virus,viral replication,A/WSN/33 M2 N31S,,EC50,0.09 ± 0.005 µM
CN[C@@H]1[C@H](O)[C@H](NC)[C@H]2O[C@]3(O)[C@H](O[C@@H]2[C@H]1O)O[C@H](C)C[C@H]3NC(=O)Cc1ccc(F)cn1,Mycobacterium tuberculosis,"microbial growth, broth dilution",H37RV,,MIC,1.6 µg/mL
CC(C)(C)C1CCc2c(sc3nc(SCCN4CCCC4)nc(N)c23)C1 (centres unmarked),Mycobacterium tuberculosis,,K204,"100 µM, compound toxic alone, with: kanamycin",kanamycin MIC,toxic
CN1CC23C4C=CC5C4C4C2C=CC4C53C1,Influenza A virus,viral replication,A/X-31 (H3N2),,EC50,> 100 µM
CN(C)CCNC(=O)CSc1nc(N)c2c3c(sc2n1)CC(c1ccccc1)CC3 (centres unmarked),Mycobacterium tuberculosis,,K204,"100 µM, compound toxic alone, with: kanamycin",kanamycin MIC,toxic
CN[C@@H]1[C@H](O)[C@H](NC)[C@H]2O[C@]3(O)[C@H](O[C@@H]2[C@H]1O)O[C@H](C)C[C@H]3NC(=O)Cc1cc(Cl)ccn1,Mycobacterium tuberculosis,"microbial growth, broth dilution",H37RV,,MIC,1.6 µg/mL
CC1CCc2c(sc3nc(SCCCN4CCCCC4)nc(N)c23)C1 (centres unmarked),Mycobacterium tuberculosis,,K204,"100 µM, compound toxic alone, with: kanamycin",kanamycin MIC,toxic
CCCC/C=C/C(=O)N[C@@H](Cc1cc(F)cc(F)c1)C(=O)N[C@@H](COC(=O)[C@@H]1CCCN1C(C)=O)C(=O)OC,"ClpP1P2 (Mycobacterium tuberculosis, UniProt P9WPC3+P9WPC5, Y75V/Y95V)",enzyme activity,,with: Z-GGL-AMC substrate,IC50,120 µM
CC(C)(C)C1CCc2c(sc3nc(SCC(=O)NCCN4CCCCC4)nc(N)c23)C1 (centres unmarked),Mycobacterium tuberculosis,,K204,"100 µM, compound toxic alone, with: kanamycin",kanamycin MIC,toxic
COc1ccc(CNC23CC4C5CC6CC4C(C2)C(C6)C5C3)c(O)c1,influenza A virus,viral replication,A/WSN/33 M2 N31S,,EC50,0.29 ± 0.11 µM
